Measurements collected from several papers.
Protocols differ between the studies behind these lines. Numbers after ± are the reported error.
Target: Cytochrome P450 2E1 (CYP2E1, Homo sapiens, UniProt P05181)
UniProt P05181, sequence (whole entry, looked up): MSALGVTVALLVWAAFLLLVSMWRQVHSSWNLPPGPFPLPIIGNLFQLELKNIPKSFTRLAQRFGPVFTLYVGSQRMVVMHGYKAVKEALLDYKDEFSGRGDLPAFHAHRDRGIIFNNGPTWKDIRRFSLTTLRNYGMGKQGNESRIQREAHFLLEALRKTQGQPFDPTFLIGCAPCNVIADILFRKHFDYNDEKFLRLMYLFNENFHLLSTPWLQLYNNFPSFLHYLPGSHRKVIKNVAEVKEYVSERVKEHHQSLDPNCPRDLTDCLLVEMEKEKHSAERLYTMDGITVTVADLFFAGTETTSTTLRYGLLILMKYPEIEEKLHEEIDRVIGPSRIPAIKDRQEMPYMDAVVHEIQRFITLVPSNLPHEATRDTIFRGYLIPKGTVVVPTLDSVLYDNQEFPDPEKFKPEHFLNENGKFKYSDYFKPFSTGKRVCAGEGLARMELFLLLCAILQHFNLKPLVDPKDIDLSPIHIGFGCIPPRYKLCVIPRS

`CCc1oc2ccccc2c1C(=O)c1cc(Br)c(OC)c(Br)c1` has an IC50 of 51 µM (p-nitrophenol hydroxylation, inhibitor; with additive 100 µM).
For `N#C[C@H](C[C@@H]1CCCNC1=O)NC(=O)[C@H](CC1CC1)NC(=O)c1cc2cccc(Cl)c2[nH]1`, the half-life was over 2.13 h (NADPH metabolic stability; 2 µM, pH 7.4, 37 °C, 100 pmol/mL enzyme).
`c1ccc2cnccc2c1` has a Ki of 0.738 ± 0.253 µM (inhibitor; reconstituted CYP-CPR-b5 system; mixed inhibition model, added: p-nitrophenol).
With `C[C@H]1CN(C2COC2)CCN1c1ccc(Nc2cc(-c3ccnc(N4CCn5c(cc6c5CC(C)(C)C6)C4=O)c3CO)cn(C)c2=O)nc1` the remaining compound was 96.6 ± 9.7% (substrate; recombinant enzyme; 1 µM, 60 min).
With `CCc1oc2ccccc2c1C(=O)c1cc(I)c(OC)c(I)c1` the IC50 was 76 µM (p-nitrophenol hydroxylation, inhibitor; with additive 100 µM).
With `CCCCC1=NC2(CCCC2)C(=O)N1Cc1ccc(-c2ccccc2S(=O)(=O)Nc2noc(C)c2C)c(COCC)c1` the CLint was 0.00275 µL/min/pmol (human liver microsomes).
`S=C=NCc1ccccc1` gave an inhibition of 74% (enzyme activity, inhibitor; human liver microsomes; concentration not given, added: chlorzoxazone).
`OCCC(O)CO` (centres unmarked) has a remaining activity of 0% (4-nitrophenol hydroxylation, inhibitor; concentration not given, 30 min, pH 7.4, added: 4-nitrophenol 50 µM).
`CN(C(=O)n1cnc(-c2ccc[n+]([O-])c2)c1)C1CCCCC1` — result for inhibition: “no effect” (enzyme activity, inhibitor; pooled human liver microsomes; 0.1 to 30 µg/mL).
`C=CCN=C=S` has an inhibition of 58% (enzyme activity, inhibitor; human liver microsomes; concentration not given, added: chlorzoxazone).
With `C=CC(O)CO` (centres unmarked) the remaining activity was 0% (4-nitrophenol hydroxylation, inhibitor; concentration not given, 30 min, pH 7.4, added: 4-nitrophenol 50 µM).

For quick reference, copied from above:
With `CCCCC1=NC2(CCCC2)C(=O)N1Cc1ccc(-c2ccccc2S(=O)(=O)Nc2noc(C)c2C)c(COCC)c1` the CLint was 0.00275 µL/min/pmol (human liver microsomes).
